Measurements pooled from the literature.
A part holds a random share of what one study measured.
Sequence of UniProt Q2M2I8 (whole entry, looked up): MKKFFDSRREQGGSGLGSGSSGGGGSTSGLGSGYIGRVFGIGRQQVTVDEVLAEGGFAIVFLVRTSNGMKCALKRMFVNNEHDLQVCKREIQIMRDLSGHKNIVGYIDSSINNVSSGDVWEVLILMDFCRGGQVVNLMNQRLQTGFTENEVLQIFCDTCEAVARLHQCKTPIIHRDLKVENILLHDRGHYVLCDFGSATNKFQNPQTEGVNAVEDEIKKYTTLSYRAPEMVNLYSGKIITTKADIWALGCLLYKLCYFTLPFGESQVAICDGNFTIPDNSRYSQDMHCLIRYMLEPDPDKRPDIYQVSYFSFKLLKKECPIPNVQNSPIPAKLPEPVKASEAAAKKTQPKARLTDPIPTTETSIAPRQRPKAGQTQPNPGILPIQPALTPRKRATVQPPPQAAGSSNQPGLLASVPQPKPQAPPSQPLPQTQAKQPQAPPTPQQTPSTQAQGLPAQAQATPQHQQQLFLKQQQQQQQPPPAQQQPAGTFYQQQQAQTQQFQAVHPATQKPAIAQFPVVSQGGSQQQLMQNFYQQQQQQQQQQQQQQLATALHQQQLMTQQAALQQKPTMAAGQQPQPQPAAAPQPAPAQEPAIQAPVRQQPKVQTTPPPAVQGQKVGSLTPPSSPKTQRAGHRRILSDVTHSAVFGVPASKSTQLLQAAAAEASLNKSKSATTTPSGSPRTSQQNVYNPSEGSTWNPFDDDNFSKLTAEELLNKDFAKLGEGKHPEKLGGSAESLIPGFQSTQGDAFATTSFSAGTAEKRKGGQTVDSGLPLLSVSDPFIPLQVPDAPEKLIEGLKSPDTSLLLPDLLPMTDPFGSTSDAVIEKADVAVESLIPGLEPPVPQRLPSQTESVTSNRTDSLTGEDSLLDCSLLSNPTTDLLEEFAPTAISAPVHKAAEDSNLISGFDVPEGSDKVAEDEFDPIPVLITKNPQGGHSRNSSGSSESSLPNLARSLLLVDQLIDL
Sequence of UniProt P36897 (whole entry, looked up): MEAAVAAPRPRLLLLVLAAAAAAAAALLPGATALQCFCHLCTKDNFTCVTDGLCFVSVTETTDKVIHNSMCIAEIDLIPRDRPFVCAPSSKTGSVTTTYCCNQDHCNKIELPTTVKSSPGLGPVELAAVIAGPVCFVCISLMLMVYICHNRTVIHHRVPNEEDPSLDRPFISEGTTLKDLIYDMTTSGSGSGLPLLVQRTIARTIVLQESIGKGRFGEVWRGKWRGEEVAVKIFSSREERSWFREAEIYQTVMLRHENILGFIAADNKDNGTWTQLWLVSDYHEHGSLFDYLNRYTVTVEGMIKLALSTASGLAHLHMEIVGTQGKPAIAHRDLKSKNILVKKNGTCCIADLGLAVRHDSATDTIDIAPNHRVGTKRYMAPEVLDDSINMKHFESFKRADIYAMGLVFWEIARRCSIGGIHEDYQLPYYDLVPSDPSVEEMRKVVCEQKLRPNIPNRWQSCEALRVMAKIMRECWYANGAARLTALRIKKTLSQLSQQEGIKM
Sequence of UniProt P0C264 (whole entry, looked up): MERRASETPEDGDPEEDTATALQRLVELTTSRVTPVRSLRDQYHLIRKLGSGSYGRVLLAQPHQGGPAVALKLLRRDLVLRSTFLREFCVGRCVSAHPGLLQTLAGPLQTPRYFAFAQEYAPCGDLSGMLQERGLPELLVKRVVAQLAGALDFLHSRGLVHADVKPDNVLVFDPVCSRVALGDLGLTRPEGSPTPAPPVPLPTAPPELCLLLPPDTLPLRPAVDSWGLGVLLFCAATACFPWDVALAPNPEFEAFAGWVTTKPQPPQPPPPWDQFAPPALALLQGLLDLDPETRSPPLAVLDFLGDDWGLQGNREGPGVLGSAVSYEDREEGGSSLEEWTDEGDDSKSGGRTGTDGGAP
Sequence of UniProt Q99759 (whole entry, looked up): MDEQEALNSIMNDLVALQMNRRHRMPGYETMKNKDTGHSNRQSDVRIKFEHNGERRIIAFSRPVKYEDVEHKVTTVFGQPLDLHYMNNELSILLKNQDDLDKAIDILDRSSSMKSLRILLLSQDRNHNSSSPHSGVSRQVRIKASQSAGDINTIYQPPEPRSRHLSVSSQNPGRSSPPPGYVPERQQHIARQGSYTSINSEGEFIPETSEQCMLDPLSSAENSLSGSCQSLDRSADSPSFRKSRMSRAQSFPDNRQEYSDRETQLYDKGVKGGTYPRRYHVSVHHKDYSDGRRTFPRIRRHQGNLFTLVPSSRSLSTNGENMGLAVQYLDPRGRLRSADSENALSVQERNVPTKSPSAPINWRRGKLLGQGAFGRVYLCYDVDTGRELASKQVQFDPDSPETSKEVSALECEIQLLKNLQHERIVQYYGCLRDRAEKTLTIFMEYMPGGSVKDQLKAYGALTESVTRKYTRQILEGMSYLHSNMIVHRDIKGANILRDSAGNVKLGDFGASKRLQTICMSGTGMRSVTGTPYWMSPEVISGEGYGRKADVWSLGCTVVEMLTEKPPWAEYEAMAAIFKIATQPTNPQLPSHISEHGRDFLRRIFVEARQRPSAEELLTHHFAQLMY

Block 1
Target: DNA polymerase theta, ATPase domain (POLQ, Homo sapiens, UniProt O75417)
Sequence of UniProt O75417 (whole entry, unmodified, looked up): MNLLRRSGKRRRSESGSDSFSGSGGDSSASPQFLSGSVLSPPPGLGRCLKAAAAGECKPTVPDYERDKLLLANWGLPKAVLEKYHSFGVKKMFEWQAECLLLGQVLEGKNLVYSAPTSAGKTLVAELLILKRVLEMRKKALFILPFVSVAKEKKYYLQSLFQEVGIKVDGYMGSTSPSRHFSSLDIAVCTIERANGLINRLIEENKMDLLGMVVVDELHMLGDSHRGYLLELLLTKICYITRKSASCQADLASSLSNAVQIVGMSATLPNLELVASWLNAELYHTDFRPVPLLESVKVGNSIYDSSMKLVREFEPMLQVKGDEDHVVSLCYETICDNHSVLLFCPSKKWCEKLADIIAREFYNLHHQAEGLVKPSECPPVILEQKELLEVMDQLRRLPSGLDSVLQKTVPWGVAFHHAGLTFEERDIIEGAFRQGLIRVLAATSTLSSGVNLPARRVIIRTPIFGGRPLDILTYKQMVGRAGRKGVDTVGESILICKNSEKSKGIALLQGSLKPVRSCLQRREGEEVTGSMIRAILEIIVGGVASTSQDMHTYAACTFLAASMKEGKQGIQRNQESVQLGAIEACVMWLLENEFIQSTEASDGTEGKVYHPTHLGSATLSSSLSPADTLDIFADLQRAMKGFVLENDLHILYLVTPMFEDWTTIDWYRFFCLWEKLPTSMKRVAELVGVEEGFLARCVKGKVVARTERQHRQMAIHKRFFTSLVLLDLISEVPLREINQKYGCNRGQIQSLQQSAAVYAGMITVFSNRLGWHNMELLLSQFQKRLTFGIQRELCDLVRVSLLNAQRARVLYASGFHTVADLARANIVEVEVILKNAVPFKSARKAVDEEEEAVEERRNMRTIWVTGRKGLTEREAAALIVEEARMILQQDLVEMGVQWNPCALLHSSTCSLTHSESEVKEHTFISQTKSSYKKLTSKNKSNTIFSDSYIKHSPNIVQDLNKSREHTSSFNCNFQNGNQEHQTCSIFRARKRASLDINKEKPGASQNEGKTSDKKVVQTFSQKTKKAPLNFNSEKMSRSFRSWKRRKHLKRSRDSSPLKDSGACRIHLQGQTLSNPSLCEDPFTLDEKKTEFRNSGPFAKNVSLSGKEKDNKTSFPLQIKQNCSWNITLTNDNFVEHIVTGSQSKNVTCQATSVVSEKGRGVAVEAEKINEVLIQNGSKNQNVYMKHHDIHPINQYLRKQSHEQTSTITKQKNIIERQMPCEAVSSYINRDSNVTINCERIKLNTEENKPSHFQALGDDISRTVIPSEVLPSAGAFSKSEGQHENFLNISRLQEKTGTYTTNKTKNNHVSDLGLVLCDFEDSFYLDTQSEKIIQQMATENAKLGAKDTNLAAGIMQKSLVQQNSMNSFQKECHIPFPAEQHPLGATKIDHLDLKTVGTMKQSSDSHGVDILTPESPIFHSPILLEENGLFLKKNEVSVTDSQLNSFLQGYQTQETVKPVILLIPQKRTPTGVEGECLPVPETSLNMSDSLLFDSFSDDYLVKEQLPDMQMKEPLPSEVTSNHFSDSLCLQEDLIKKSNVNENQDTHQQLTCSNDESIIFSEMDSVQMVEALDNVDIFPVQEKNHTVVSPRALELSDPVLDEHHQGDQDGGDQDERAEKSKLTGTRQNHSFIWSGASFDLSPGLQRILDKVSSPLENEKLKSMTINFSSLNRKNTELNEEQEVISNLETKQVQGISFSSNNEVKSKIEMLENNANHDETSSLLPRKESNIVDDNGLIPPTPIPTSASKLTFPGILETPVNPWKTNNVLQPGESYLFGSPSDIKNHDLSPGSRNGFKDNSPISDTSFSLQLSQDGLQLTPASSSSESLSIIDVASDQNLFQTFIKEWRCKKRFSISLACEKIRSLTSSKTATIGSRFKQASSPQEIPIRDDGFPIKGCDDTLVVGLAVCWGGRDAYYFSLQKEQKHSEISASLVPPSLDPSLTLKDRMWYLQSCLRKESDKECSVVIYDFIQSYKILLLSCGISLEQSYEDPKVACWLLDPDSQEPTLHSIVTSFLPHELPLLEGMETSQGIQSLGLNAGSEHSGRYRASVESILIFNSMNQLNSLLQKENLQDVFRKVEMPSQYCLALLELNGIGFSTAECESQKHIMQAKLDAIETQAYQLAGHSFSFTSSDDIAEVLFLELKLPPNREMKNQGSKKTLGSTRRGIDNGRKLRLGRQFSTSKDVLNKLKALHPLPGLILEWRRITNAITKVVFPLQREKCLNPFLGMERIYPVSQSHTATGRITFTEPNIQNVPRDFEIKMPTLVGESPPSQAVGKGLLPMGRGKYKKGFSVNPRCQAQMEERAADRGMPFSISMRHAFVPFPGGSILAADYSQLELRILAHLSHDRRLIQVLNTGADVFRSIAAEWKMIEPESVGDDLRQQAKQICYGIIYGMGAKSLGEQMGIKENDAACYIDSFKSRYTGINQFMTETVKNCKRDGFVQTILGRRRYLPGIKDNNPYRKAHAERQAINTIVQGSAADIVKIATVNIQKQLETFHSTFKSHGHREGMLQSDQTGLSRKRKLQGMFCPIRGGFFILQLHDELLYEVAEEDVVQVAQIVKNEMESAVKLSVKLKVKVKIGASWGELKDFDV
Read-out: enzyme activity
Action: inhibitor
Concentration: 77 µM
| Compound | remaining activity [%] |
| --- | --- |
| O=C(O)c1ccccc1O | 90.6 |
| C[C@]12C=CC(=O)C=C1CC[C@@H]1C2=CC[C@]2(C)[C@@H](C(=O)CN3CCN(c4cc(N5CCCC5)nc(N5CCCC5)n4)CC3)CC[C@@H]12 | 110 |
| C=C(NC(=O)C(=C)NC(=O)c1csc(C2=N[C@@H]3c4csc(n4)[C@H]4NC(=O)c5csc(n5)[C@H]([C@](C)(O)[C@@H](C)O)NC(=O)[C@H]5CSC(=N5)/C(=C/C)NC(=O)[C@H]([C@@H](C)O)NC(=O)c5csc(n5)[C@]3(CC2)NC(=O)[C@H](C)NC(=O)C(=C)NC(=O)[C@H](C)NC(=O)[C@H]([C@@H](C)CC)N[C@@H]2C=Cc3c([C@H](C)O)cc(nc3[C@H]2O)C(=O)O[C@@H]4C)n1)C(N)=O | 102 |
| CC(C)NC[C@H](O)COc1cccc2[nH]ccc12 | 105 |
| Cc1c(N)c(=O)n(-c2ccccc2)n1C | 95.8 |
| CN1CCN(CC(=O)N2c3ccccc3C(=O)Nc3cccnc32)CC1 | 102 |
| COc1ccc2c(c1)CC[C@@H]1[C@@H]2CC[C@]2(C)[C@@H](NCCCCCCN3C(=O)C=CC3=O)CC[C@@H]12 | 103 |
| CCN(CC)CC#CCOC(=O)C(O)(c1ccccc1)C1CCCCC1 (stereo not shown) | 105 |

Block 2
Compound: COc1ccc2[nH]c3c4[nH]c5ccc(OC)cc5c4c4c(c3c2c1)C(=O)NC4=O
Concentration: 1 µM
| target | test | remaining binding [%] |
| --- | --- | --- |
| Serine/threonine-protein kinase N1 (PKN1, Homo sapiens, UniProt Q16512) | binding | 42 |
| Ephrin type-B receptor 6 (EPHB6, Homo sapiens, UniProt O15197) | binding, competition with immobilised ligand | 7.3 |
| cAMP-dependent protein kinase catalytic subunit PRKX (PRKX, Homo sapiens, UniProt P51817) | binding | 23 |
| Proto-oncogene tyrosine-protein kinase receptor Ret (RET, Homo sapiens, UniProt P07949, M918T) | binding | 21 |
| AP2-associated protein kinase 1 (AAK1, Homo sapiens, UniProt Q2M2I8) | binding, competition with immobilised ligand | 53 |
| SNF-related serine/threonine-protein kinase (SNRK, Homo sapiens, UniProt Q9NRH2) | binding | 56 |
| Tyrosine-protein kinase JAK3, JH1 (JAK3, Homo sapiens, UniProt P52333) | cell-free assay, competition with immobilised ligand | 47 |

Block 3
SMILES: O=C1C(Cl)=C(N2C(=O)CCC2=O)C(=O)c2ccccc21
Read-out: enzyme activity
Action: inhibitor
Concentration: 0.5 µM
Relative to: control
| target | remaining activity |
| --- | --- |
| TGF-beta receptor type-2 (TGFBR2, Homo sapiens, UniProt P37173) | 130% |
| Protein kinase C beta type, isoform beta-I (PRKCB, Homo sapiens, UniProt P05771) | 92.1% |
| cGMP-dependent protein kinase 1, isoform beta (PRKG1, Homo sapiens, UniProt Q13976) | 104% |
| Serine/threonine-protein kinase Chk2 (CHEK2, Homo sapiens, UniProt O96017) | 95.7% |
| Mitogen-activated protein kinase 9 (MAPK9, Homo sapiens, UniProt P45984) | 93.6% |
| Serine/threonine-protein kinase Nek2 (NEK2, Homo sapiens, UniProt P51955) | 88.6% |
| Inhibitor of nuclear factor kappa-B kinase subunit epsilon (IKBKE, Homo sapiens, UniProt Q14164) | 99.6% |
| Death-associated protein kinase 1 (DAPK1, Homo sapiens, UniProt P53355) | 101% |
| Calcium/calmodulin-dependent protein kinase kinase 2 (CAMKK2, Homo sapiens, UniProt Q96RR4) | 86.1% |
| G protein-coupled receptor kinase 3 (GRK3, Homo sapiens, UniProt P35626) | 103% |
| Cyclin-dependent kinase 4, with cyclin D1 (CDK4, Homo sapiens, UniProt P11802) | 103% |
| Inhibitor of nuclear factor kappa-B kinase subunit beta (IKBKB, Homo sapiens, UniProt O14920) | 101% |
| Protein kinase C alpha type (PRKCA, Homo sapiens, UniProt P17252) | 99.1% |
| Serine/threonine-protein kinase OSR1 (OXSR1, Homo sapiens, UniProt O95747) | 108% |
| Calcium/calmodulin-dependent protein kinase type II subunit delta (CAMK2D, Homo sapiens, UniProt Q13557) | 109% |
| TGF-beta receptor type-1 (TGFBR1, Homo sapiens, UniProt P36897) | 101% |
| cAMP-dependent protein kinase catalytic subunit alpha (PRKACA, Homo sapiens, UniProt P17612) | 88.8% |
| Tyrosine-protein kinase Lyn, isoform B (LYN, Homo sapiens, UniProt P07948) | 97% |
| Death-associated protein kinase 2 (DAPK2, Homo sapiens, UniProt Q9UIK4) | 133% |
| Cyclin-dependent kinase 5, with p25 (CDK5, Homo sapiens, UniProt Q00535) | 87.3% |
| Mitogen-activated protein kinase kinase kinase 3 (MAP3K3, Homo sapiens, UniProt Q99759) | 95.5% |
| STE20/SPS1-related proline-alanine-rich protein kinase (STK39, Homo sapiens, UniProt Q9UEW8) | 97.3% |

Block 4
SMILES: COc1ccc2c(O[C@@H]3C[C@H]4C(=O)N[C@]5(C(=O)O)CC5/C=C\CCCCC[C@H](NC(=O)OC5CCCC5)C(=O)N4C3)cc(-c3csc(NC(=O)C(C)C)n3)nc2c1C (stereo partly shown)
Read-out: cell-free assay
Method: competition with immobilised ligand
Concentration: 1 µM
| target | remaining binding |
| --- | --- |
| Non-receptor tyrosine-protein kinase TNK1 (TNK1, Homo sapiens, UniProt Q13470) | 100% |
| Myosin light chain kinase, smooth muscle (MYLK, Homo sapiens, UniProt Q15746) | 78% |
| Serine/threonine-protein kinase PLK2 (PLK2, Homo sapiens, UniProt Q9NYY3) | 69% |
| AP2-associated protein kinase 1 (AAK1, Homo sapiens, UniProt Q2M2I8) | 100% |
| Serine/threonine-protein kinase PAK 2 (PAK2, Homo sapiens, UniProt Q13177) | 91% |
| Serine/threonine-protein kinase NLK (NLK, Homo sapiens, UniProt Q9UBE8) | 99% |
| Tyrosine-protein kinase ABL1, phosphorylated (ABL1, Homo sapiens, UniProt P00519, M351T) | 90% |
| Citron Rho-interacting kinase (CIT, Homo sapiens, UniProt O14578) | 99% |
| Uncharacterized serine/threonine-protein kinase SBK3 (SBK3, Homo sapiens, UniProt P0C264) | 99% |
| Epithelial discoidin domain-containing receptor 1 (DDR1, Homo sapiens, UniProt Q08345) | 100% |
| Activated CDC42 kinase 1 (TNK2, Homo sapiens, UniProt Q07912) | 100% |
| Dual specificity protein kinase CLK4 (CLK4, Homo sapiens, UniProt Q9HAZ1) | 100% |
| Cyclin-dependent kinase-like 5 (CDKL5, Homo sapiens, UniProt O76039) | 77% |
| Serine/threonine-protein kinase 4 (STK4, Homo sapiens, UniProt Q13043) | 100% |
| Ribosomal protein S6 kinase alpha-4, C-terminal kinase domain (RPS6KA4, Homo sapiens, UniProt O75676) | 72% |
